Published values from different studies.
Parts stem from different laboratories: compare values within a part only.
UniProt O15530, sequence (whole entry, looked up): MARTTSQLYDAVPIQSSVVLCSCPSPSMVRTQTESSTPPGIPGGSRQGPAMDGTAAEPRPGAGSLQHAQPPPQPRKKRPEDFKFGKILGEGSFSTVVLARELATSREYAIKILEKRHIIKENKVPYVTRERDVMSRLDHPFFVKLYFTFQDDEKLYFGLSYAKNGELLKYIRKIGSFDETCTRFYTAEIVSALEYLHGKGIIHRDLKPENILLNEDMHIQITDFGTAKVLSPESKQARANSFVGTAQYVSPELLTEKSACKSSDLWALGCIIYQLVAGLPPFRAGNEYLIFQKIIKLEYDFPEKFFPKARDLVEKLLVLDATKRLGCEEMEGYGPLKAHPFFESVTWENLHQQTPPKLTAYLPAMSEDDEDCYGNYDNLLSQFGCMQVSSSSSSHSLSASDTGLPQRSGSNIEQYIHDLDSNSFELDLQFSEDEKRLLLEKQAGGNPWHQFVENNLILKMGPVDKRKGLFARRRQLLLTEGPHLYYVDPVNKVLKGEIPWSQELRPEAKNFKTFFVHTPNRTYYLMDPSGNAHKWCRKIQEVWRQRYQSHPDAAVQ
UniProt Q9UIK4, sequence (whole entry, looked up): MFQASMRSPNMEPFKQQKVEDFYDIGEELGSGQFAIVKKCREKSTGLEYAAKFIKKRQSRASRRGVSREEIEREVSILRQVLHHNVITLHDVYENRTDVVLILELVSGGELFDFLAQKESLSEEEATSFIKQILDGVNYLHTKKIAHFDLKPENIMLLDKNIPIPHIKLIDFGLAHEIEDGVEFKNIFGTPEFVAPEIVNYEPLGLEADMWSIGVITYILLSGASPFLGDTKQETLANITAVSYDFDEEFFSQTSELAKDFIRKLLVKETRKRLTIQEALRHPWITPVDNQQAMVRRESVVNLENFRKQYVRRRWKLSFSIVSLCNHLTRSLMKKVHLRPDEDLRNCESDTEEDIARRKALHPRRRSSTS
UniProt Q14164, sequence (whole entry, looked up): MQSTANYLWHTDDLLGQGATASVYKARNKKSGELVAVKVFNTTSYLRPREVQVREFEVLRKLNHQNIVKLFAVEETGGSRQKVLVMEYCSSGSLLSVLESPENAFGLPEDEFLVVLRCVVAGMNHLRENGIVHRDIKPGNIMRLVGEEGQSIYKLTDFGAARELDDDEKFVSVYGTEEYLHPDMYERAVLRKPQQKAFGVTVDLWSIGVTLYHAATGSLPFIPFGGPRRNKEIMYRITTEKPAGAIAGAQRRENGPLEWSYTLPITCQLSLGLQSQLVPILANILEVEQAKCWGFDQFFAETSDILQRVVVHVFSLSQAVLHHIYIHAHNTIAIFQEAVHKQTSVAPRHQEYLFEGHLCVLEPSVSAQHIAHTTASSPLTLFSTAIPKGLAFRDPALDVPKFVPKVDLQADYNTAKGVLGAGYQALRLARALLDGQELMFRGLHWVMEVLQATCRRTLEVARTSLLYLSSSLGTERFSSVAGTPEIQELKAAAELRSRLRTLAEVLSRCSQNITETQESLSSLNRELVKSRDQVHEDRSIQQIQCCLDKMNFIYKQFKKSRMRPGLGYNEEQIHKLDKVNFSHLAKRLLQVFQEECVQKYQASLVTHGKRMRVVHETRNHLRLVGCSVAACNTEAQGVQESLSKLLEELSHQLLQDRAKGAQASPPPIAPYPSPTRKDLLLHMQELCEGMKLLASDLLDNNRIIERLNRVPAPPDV
UniProt O00238, sequence (whole entry, looked up): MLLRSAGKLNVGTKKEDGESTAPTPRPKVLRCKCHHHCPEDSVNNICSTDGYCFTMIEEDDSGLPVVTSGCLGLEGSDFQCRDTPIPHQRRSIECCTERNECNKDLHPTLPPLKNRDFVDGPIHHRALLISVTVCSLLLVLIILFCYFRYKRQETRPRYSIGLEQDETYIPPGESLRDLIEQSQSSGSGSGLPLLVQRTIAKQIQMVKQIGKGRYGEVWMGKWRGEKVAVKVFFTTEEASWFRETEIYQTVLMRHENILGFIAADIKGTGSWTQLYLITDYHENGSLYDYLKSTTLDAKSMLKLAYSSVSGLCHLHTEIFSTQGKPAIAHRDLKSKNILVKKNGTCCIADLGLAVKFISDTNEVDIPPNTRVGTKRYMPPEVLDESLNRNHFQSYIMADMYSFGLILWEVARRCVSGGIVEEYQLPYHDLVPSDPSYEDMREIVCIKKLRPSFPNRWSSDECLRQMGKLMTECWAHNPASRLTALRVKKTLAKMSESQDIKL
UniProt Q14012, sequence (whole entry, looked up): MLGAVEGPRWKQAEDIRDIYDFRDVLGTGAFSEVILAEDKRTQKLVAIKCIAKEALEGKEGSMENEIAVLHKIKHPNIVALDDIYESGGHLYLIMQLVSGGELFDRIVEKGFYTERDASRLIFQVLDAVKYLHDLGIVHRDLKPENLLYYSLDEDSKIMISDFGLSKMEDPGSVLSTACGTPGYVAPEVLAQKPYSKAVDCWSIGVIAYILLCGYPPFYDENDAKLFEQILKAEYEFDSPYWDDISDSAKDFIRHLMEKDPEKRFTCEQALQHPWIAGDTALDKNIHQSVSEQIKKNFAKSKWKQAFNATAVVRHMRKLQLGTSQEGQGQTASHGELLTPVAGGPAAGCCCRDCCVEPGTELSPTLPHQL
UniProt P51812, sequence (whole entry, looked up): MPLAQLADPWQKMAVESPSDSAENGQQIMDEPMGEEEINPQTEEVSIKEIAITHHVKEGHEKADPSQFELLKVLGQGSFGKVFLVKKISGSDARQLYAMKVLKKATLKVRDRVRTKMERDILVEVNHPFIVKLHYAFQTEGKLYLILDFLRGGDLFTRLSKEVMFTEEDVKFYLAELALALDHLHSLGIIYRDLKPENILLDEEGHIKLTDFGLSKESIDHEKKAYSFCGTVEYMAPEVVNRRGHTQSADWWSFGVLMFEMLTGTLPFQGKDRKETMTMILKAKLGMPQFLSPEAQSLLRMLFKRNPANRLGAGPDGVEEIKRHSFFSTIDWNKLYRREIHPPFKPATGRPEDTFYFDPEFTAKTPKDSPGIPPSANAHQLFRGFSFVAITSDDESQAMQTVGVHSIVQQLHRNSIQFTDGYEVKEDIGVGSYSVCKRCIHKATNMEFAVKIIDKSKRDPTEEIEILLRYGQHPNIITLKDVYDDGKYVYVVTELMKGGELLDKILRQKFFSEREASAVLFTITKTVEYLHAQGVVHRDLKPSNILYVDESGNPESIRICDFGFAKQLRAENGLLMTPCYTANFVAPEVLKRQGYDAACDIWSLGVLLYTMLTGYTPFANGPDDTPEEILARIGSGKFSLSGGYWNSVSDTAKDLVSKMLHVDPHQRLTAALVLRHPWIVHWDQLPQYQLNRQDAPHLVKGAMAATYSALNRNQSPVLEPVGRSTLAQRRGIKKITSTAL
UniProt O96017, sequence (whole entry, looked up): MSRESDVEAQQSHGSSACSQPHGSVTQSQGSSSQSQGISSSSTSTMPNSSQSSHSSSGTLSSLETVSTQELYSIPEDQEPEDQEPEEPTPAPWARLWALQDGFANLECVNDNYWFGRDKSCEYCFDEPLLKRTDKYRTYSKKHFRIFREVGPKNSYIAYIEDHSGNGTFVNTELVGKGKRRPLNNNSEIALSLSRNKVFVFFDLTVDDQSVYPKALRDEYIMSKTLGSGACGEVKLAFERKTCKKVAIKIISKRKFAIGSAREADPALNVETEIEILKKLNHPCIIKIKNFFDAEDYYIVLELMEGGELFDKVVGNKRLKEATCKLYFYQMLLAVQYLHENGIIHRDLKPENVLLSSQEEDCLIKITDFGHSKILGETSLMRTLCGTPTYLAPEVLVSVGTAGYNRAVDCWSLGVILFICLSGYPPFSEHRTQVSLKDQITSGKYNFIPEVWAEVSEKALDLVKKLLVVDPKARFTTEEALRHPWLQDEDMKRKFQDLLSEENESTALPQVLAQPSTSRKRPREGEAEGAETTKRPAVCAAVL
UniProt P53667, sequence (whole entry, looked up): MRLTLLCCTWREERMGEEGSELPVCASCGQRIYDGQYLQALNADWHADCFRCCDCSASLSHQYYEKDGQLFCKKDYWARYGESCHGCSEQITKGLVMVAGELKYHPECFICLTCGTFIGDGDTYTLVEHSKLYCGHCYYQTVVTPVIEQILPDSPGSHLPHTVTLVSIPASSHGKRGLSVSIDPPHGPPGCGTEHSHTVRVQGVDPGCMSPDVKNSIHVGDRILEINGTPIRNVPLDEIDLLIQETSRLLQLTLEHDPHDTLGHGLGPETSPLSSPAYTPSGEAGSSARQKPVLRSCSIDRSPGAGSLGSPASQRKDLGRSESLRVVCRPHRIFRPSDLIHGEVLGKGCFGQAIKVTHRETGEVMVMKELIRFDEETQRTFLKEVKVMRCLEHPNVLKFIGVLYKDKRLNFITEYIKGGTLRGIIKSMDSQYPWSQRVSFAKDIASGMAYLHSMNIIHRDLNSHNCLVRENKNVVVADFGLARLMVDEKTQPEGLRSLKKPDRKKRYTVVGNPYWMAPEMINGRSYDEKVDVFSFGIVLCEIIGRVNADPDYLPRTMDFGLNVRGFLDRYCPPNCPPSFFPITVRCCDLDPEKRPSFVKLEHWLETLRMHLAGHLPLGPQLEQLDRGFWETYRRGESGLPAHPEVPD
UniProt P11802, sequence (whole entry, looked up): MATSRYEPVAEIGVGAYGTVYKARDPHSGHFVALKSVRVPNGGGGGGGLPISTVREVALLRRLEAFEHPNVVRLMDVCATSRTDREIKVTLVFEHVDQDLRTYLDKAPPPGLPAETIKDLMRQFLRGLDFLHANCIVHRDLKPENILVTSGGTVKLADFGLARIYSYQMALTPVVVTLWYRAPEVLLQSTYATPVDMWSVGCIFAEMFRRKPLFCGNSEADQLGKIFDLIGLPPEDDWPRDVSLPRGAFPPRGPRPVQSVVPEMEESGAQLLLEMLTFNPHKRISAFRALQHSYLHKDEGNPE

Study 1
SMILES: C[C@@H]1CN(c2cc(-c3n[nH]c4ccc(OC5(C)CC5)cc34)ncn2)C[C@H](C)O1
Observed: cell-free assay
Method: competition with immobilised ligand
Concentration: 0.1 µM
Measurement: remaining binding
ABL2 (Homo sapiens, UniProt P42684): 73%
LIM domain kinase 1 (LIMK1, Homo sapiens, UniProt P53667): 86%
STK39 (Homo sapiens, UniProt Q9UEW8): 85%
BMPR1B (Homo sapiens, UniProt O00238): 81%
CDK16 (Homo sapiens, UniProt Q00536): 85%
CAMK1 (Homo sapiens, UniProt Q14012): 100%
Ribosomal protein S6 kinase alpha-3, C-terminal kinase domain (RPS6KA3, Homo sapiens, UniProt P51812): 85%
PDPK1 (Homo sapiens, UniProt O15530): 78%
STK11 (Homo sapiens, UniProt Q15831): 83%
TLK2 (Homo sapiens, UniProt Q86UE8): 100%

Study 2
Target: RNA binding protein fox-1 homolog 2, RRM domain, GST-SBP tag (RBFOX2, Homo sapiens, UniProt O43251-10, residues 100-194)
Method: RNA Bind-n-Seq
Form: RNA
Medium: in vitro
Concentration: 365 nM
Notes: natural RNA segment, single round, ends assumed
Reference: no-protein control
Direction: higher = stronger binding
Measurement: RBNS enrichment (R)
All sequences stand within: GGGAGUUCUACAGUCCGACGAUC … UGGAAUUCUCGGGUGCCAA
Residues (chain): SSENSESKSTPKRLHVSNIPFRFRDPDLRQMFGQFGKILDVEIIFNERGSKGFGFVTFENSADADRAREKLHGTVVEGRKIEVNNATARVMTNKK
AAUAUAGUUAUCUCUACCACUUUCUUUUCUAGUUUCUUGAUUUUCAGCUCAGGCUGCAUUCUAACUCAUACUGUGAAGACAAAGGUGUUUUUGAUUCAGAAAUAUAUGAA: 0.399
UUAAAAGUUUACAAAAUUUUUUUUUUUGUUUUGAGACAGAGUAUGGCUUUGUUACCCAGGCUGGAUUGCAAUGGGGUGAUCUAGGCUCACUGCAGCCUCCACCACCUGAG: 0.474
CACUUGGGACAGACUAUUUGUAGUGUCUAUAGGACAUGAAGCGUGCAGCUUGGAGAGCAAAGGCACUUCCUCCCACGACCUUACUGCAGUAACCAUACCGAUCAAAUUCC: 0.556
ACAUCAGUUUGAUAUUCUCUUAAAGGAAAUAAAUAUUCAAGAACUGAUUAUGUUCUAACAUGAUUAUUUCAUGGUGUUACAUAGGCCUCAAUUUUUUCACAGAAAGAUUU: 0.334
UUCUGUGAGAAGUGUUCUUAAACUUAUUAAGUGUCUAAACUAAGGUUUAGUGCUUUUUUAAAGGAAAGUUGUCCCAGGAUUCAUCCUAAAGAAAGCAAAAGUUAAUUCAA: 0.321
GCCUGUCUCAAGCUCUUCCUUACUCCCAGGCACUGUCUUAAGGCAUCUGACAUGCAUCAUCUCAUUUAAUCCUCCCUUCCUCCCUAUUAACCUAGAGAUUGUUUUUGUUU: 2.78
AAAAGAAAAAGAACAAAGAAACCCUUUAUUUCAUUAAAUGAUUUUUUCUGGUGGUUGUCAAGAAACAAAAGACCAAAAGAGCCUUUUUGUCUUUCUUUUUUAUUUUUUAA: 0.611
AAAGCACCGCCUAUUUUGUAUAAAGUUUCUGAUUCCGUCUUGGCUGUCUAGUGCGUGCUAUCUGUGUGGGGAGAAGCUUCGUGAAUAUGCACCGUUUUGAUGCCCAUGCA: 0.88

Study 3
SMILES: NCCNc1ncc(C(N)=O)c(Nc2cccc(C(F)(F)F)c2)n1
Observed: enzyme activity
Mode: inhibitor
Concentration: 0.5 µM
Reference: control
Measurement: remaining activity
cGMP-dependent protein kinase 1, isoform beta (PRKG1, Homo sapiens, UniProt Q13976): 89.9%
CHEK2 (Homo sapiens, UniProt O96017): 11.5%
DAPK2 (Homo sapiens, UniProt Q9UIK4): 100%
Cyclin-dependent kinase 4, with cyclin D1 (CDK4, Homo sapiens, UniProt P11802): 108%
MAPK9 (Homo sapiens, UniProt P45984): 94.1%
IKBKE (Homo sapiens, UniProt Q14164): 95.8%
STK10 (Homo sapiens, UniProt O94804): 74.9%
Cyclin-dependent kinase 5, with p25 (CDK5, Homo sapiens, UniProt Q00535): 92.4%
TGFBR2 (Homo sapiens, UniProt P37173): 114%
MAP3K3 (Homo sapiens, UniProt Q99759): 104%

Other studies, line by line
PhoQ, residues 284 288 289 292 302 303 SLSVQF  fold induction (PhoP, residues 12 14 15 18 19 HLGGL (Escherichia coli, UniProt P23836); Sort-seq, refers to: YFP reporter; E. coli; PhoQ-PhoP variant library, with: 10 µM Mg2+; reference: high Mg2+ state, higher = stronger signaling): 12.5

A few entries again (study 1):
STK11 (Homo sapiens, UniProt Q15831): 83%
TLK2 (Homo sapiens, UniProt Q86UE8): 100%
